Results collected from several papers.
Values joined by “and” are separate records of one study, mostly repeats; a detail may differ. ± gives the spread as reported.
BPTF bromodomain: Nucleosome-remodeling factor subunit BPTF, bromodomain (BPTF, Homo sapiens, UniProt Q12830)
LGALS9 N-terminal CRD: Galectin-9, N-terminal CRD (LGALS9, Homo sapiens, UniProt O00182)

NCCCC[C@H](NC(=O)[C@H](CC(N)=O)NC(=O)[C@H](CCCCNC(=O)[C@H](Cc1ccc(B(O)O)cc1)NC(=O)[C@H](Cc1ccc(O)cc1)NC(=O)[C@@H](N)Cc1ccc(B(O)O)cc1)NC(=O)[C@H](Cc1ccc(B(O)O)cc1)NC(=O)[C@H](Cc1ccc(O)cc1)NC(=O)[C@@H](N)Cc1ccc(B(O)O)cc1)C(=O)N[C@@H](CO)C(=O)N[C@@H](Cc1ccc(O)cc1)C(N)=O  Kd (HIV-1 RRE IIB RNA; dot blot; added: 1000-fold excess tRNA): 26.4 ± 10.2 µM
CCC(C)/C=C/C(C)=C\C=C\C(C)=C\C=O (stereo not drawn)  Kd (Rhodopsin, apoprotein (opsin) (RHO, Bos taurus, UniProt P02699); Trp fluorescence quenching; opsin membranes; titration up to 1 µM): 0.1 µM
C[C@H](NC(=O)[C@H](Cc1ccc(O)cc1)NC(=O)[C@H](Cc1ccccc1)NC(=O)[C@H](CCC(=O)O)NC(=O)[C@H](CCC(=O)O)NC(=O)[C@H](CCC(N)=O)NC(=O)[C@H](CCCCN)NC(=O)[C@@H](NS(=O)(=O)c1cccc2c(N(C)C)cccc12)[C@@H](C)O)C(=O)O  Kd (Rho guanine nucleotide exchange factor TIAM1, PDZ domain (TIAM1, Homo sapiens, UniProt Q13009, K879E); fluorescence anisotropy; 25 °C, added: N-terminally dansylated peptide): 64.7 ± 0.9 µM
CC(=O)N[C@@H]1[C@@H](O[C@@H]2O[C@H](C(=O)O)[C@@H](O[C@@H]3O[C@H](COS(=O)(=O)O)[C@@H](OS(=O)(=O)O)[C@H](O[C@@H]4O[C@H](C(=O)O)[C@@H](OS(=O)(=O)O)[C@H](OS(=O)(=O)O)[C@H]4OS(=O)(=O)O)[C@H]3NC(C)=O)[C@H](OS(=O)(=O)O)[C@H]2OS(=O)(=O)O)[C@H](OS(=O)(=O)O)[C@@H](COS(=O)(=O)O)O[C@H]1N=[N+]=[N-]  Kd (Transforming growth factor beta-1 proprotein, mature (TGFB1, Homo sapiens, UniProt P01137); fluorescence polarization competition): 4.8 ± 1.7 µM
O=c1c(OS(=O)(=O)O)c(-c2ccc(OS(=O)(=O)O)c(OS(=O)(=O)O)c2)oc2cc(OS(=O)(=O)O)cc(OCCCOc3cc(OS(=O)(=O)O)cc4oc(-c5ccc(OS(=O)(=O)O)c(OS(=O)(=O)O)c5)c(OS(=O)(=O)O)c(=O)c34)c12  Kd (Fibronectin (FN1, Homo sapiens, UniProt P02751); binding, MST): 15.5 µM
CC(=O)NCCCC[C@H](NC(=O)CNC(=O)[C@H](C)NC(=O)[C@H](CCCCN)NC(=O)CNC(=O)CNC(=O)[C@H](C)NC(=O)[C@@H](N)Cc1ccc(O)cc1)C(=O)N[C@@H](CC(=O)O)C(=O)N[C@@H](CO)C(=O)NCC(=O)N[C@@H](CCCCN)C(=O)N[C@@H](C)C(=O)N[C@@H](CCCCNC(C)=O)C(=O)N[C@H](C(=O)N[C@@H](CCCCN)C(=O)N[C@@H](C)C(=O)N[C@H](C(=O)N[C@@H](CO)C(=O)N[C@@H](CCCNC(=N)N)C(N)=O)C(C)C)[C@@H](C)O  Kd (BPTF bromodomain; bromodomain binding, PrOF NMR titration; pH 7.4, 5-fluorotryptophan-labelled bromodomain, 40-50 µM): 520 µM
C#CCN(CC(=O)N(CCOC)CC(=O)N(CCOC)CC(N)=O)C(=O)CN(CCOC)C(=O)CN(CC1CCCC1)C(=O)CN(Cc1ccc(F)cc1)C(=O)C(C)N(CCCOC)C(=O)CNCc1ccc(S(N)(=O)=O)cc1 (stereo not drawn)  Kd (MMP14 (Homo sapiens, UniProt P50281); binding, FP): 0.7 µM
COc1cncc(-c2cc(F)cc(CNC(=O)c3cc(N4CC[C@@](C#N)(C5CC5)C4=O)cc(C)n3)c2)c1  Kd (Proline--tRNA ligase (Plasmodium falciparum, UniProt Q8I5R7); binding, microscale thermophoresis): 0.0786 µM and 0.0964 µM
COCCOCCOCCOC(=O)c1cnc2cc(-c3c(C)noc3C)c(OC)cc2c1N[C@H](C)c1ccccn1  Kd (BRD4 (Homo sapiens, UniProt O60885); binding, SPR): 8.5 µM
CCCC[C@@H](C(=O)N1CCN([C@@H](CCC(N)=O)C(N)=O)C(=O)[C@@H]1C)N1CCN[C@@H](CC(C)C)C1=O  Kd (Histone acetyltransferase p300, CH1 domain (EP300, Homo sapiens, UniProt Q09472); binding, intrinsic tryptophan fluorescence): 0.03 ± 0.01 µM
N=C(N)NCCC[C@@H]1NC(=O)[C@H](Cc2csc3ccccc23)NC(=O)[C@@H](Cc2ccccc2)NC(=O)[C@H](Cc2ccccc2)NC(=O)[C@H](CCC(=O)NCCOCCOCC(=O)N[C@@H](CCCCNC(=S)Nc2ccc3c(c2)C(=O)OC32c3ccc(O)cc3Oc3cc(O)ccc32)C(N)=O)NC(=O)[C@@H](CCCNC(=N)N)NC(=O)[C@H](CCCNC(=N)N)NC(=O)[C@@H](CCCNC(=N)N)NC1=O  Kd (fetal bovine serum proteins; binding, fluorescence polarization; 1 h): 30 ± 5 µM
COc1cc2nc(NC(=O)C3CC3)sc2cc1Oc1ccc(F)c(NC(=O)Cc2cccc(C(F)(F)F)c2)c1  Kd (RIPK3 (Homo sapiens, UniProt Q9Y572); binding, competition with immobilised ligand): > 5 µM
CN1CCC(NC(=O)c2ccc(-c3cc(-c4ccc(F)cc4)c4oc5c(c4c3)CCN(C(=O)/C=C/c3ccc(N)nc3)C5)nn2)C(F)(F)C1 (stereo not drawn)  Kd (PAK4 (Homo sapiens, UniProt O96013); binding to kinase domain, surface plasmon resonance): 2.35 µM
CC[C@H](C)[C@H](NC(=O)[C@H](CCCCN)NC(=O)[C@H](CCCCN)NC(=O)[C@@H](NC(=O)[C@H](CCC(=O)O)NC(=O)[C@H](CCC(=O)O)NC(=O)[C@H](CCC(=O)O)NC(=O)[C@H](C)NC(=O)[C@H](CC(C)C)NC(=O)[C@H](CC(=O)O)NC(=O)[C@H](CC(C)C)NC(=O)CNC(=O)[C@H](CCCNC(=N)N)NC(=O)[C@H](CC(C)C)NC(=O)[C@H](CO)NC(=O)CNC(=O)CNC(=O)CNC(=O)CCCC[C@@H]1SC[C@@H]2NC(=O)N[C@@H]21)C(C)C)C(=O)N[C@@H](CC(C)C)C(=O)N[C@@H](CC(=O)O)C(=O)N[C@@H](CCC(=O)O)C(=O)N[C@H](C(=O)N[C@H](C(=O)N[C@@H](CCCCN)C(=O)N[C@@H](CC(=O)O)C(=O)O)C(C)C)[C@@H](C)CC  Kd (Fab B11 antibody (human); binding, biolayer interferometry; added: biotinylated peptide on tips): 0.16 ± 0.004 µM
C[Si](C)(C)c1cc2c3c(c1)O[C@H](CO)[C@H](O)[C@@H]3OC2  Kd (LGALS9 N-terminal CRD; binding, competitive fluorescence polarization; 20 °C, galectin-9 N-terminal domain 1.0 µM): > 6000 µM
O=C(O)C1(O)Oc2cc(Br)ccc2N(Cc2ccccc2)C1=O (stereo not drawn)  Kd (Dihydroxy-acid dehydratase, chloroplastic (DHAD, Arabidopsis thaliana, UniProt Q9LIR4); microscale thermophoresis): < 3 µM
OC[C@H]1Oc2cc(Cc3ccc(F)cc3)cc3c2[C@@H](OC3)[C@H]1O  Kd (Galectin-9 (LGALS9, Homo sapiens, UniProt O00182); cell-free assay, FP): > 1000 µM
CC1CC(C)(C)N(C(=O)CN2C(=O)c3ccccc3C2=O)c2ccc(C(=O)N3CCN(C(=O)CCC4=[N+]5C(=Cc6ccc(-c7ccc[nH]7)n6[B-]5(F)F)C=C4)CC3)cc21 (stereo not drawn)  Kd (Mucolipin-1 (MCOLN1, Homo sapiens, UniProt Q9GZU1); BRET saturation binding; HEK293T expressing target): 0.8 ± 0.3 µM
CNCCCC[C@H](NC(=O)CNC(=O)CNC(=O)[C@H](C)NC(=O)[C@@H](N)Cc1ccc(O)cc1)C(=O)N[C@@H](C)C(=O)NCC(=O)N[C@@H](CCCCNC(C)=O)C(=O)N[C@@H](CC(=O)O)C(=O)N[C@@H](CO)C(=O)NCC(=O)N[C@@H](CCCCN)C(=O)N[C@@H](C)C(=O)N[C@@H](CCCCNC(C)=O)C(=O)N[C@@H](C)C(=O)N[C@@H](CCCCN)C(=O)N[C@@H](C)C(=O)N[C@H](C(=O)N[C@@H](CO)C(=O)N[C@@H](CCCNC(=N)N)C(N)=O)C(C)C  Kd (BPTF bromodomain; bromodomain binding, PrOF NMR titration; pH 7.4, 5-fluorotryptophan-labelled bromodomain, 40-50 µM): 340 µM
CC#Cc1cc2c3c(c1)O[C@H](CO)[C@H](O)[C@@H]3OC2  Kd (LGALS9 N-terminal CRD; binding, competitive fluorescence polarization; 20 °C, galectin-9 N-terminal domain 1.0 µM): > 2000 µM
Cc1ccc(NC(=O)c2c(C)oc3ccc(O)c(CN4CCCCCC4)c23)cc1  Kd (MYC Pu22 G-quadruplex DNA; surface plasmon resonance): 4.5 ± 1.4 µM
CC(=O)NCCCC[C@H](NC(=O)CNC(=O)[C@H](CO)NC(=O)[C@H](CC(=O)O)NC(=O)[C@H](CCCCN)NC(=O)CNC(=O)[C@H](C)NC(=O)[C@H](CCCCN)NC(=O)CNC(=O)CNC(=O)[C@H](C)NC(=O)[C@@H](N)Cc1ccc(O)cc1)C(=O)N[C@@H](C)C(=O)N[C@@H](CCCCN)C(=O)N[C@@H](C)C(=O)N[C@@H](CCCCN)C(=O)N[C@@H](C)C(=O)N[C@H](C(=O)N[C@@H](CO)C(=O)N[C@@H](CCCNC(=N)N)C(N)=O)C(C)C  Kd (BPTF bromodomain; bromodomain binding, PrOF NMR titration; pH 7.4, 5-fluorotryptophan-labelled bromodomain, 40-50 µM): 1360 µM
CC(C)C[C@@H]1NC(=O)CNC(=O)[C@H]([C@@H](C)O)NC(=O)[C@@H](NC(=O)COCCOCCNC(=S)Nc2ccc3c(c2)C(=O)OC32c3ccc(O)cc3Oc3cc(O)ccc32)CCCCNC(=O)c2cc3cc(c2)NC(=O)CSC[C@H](NC(=O)[C@H](CO)NC(=O)[C@H](C(C)C)NC(=O)[C@H](Cc2c[nH]c4ccccc24)NC(=O)[C@H](CO)NC(=O)[C@H]([C@@H](C)O)NC1=O)C(=O)N[C@@H](Cc1c[nH]cn1)C(=O)N[C@@H](Cc1ccccc1)C(=O)N[C@@H](CC(C)C)C(=O)N[C@@H](CCCNC(=N)N)C(=O)N[C@@H](CO)C(=O)N[C@@H](CC(C)C)C(=O)N[C@H](C(N)=O)CSCC(=O)N3  Kd (TEAD4 (Homo sapiens, UniProt Q15561); binding, FP): 0.0701 µM
CC(C)C[C@H](NC(=O)[C@@H]1CSSC[C@H](NC(=O)[C@@H]2CCCN2C(=O)[C@@H](N)CC(C)C)C(=O)N[C@@H](CC(=O)O)C(=O)N[C@@H](Cc2ccc(O)cc2)C(=O)N[C@@H](Cc2ccc(O)cc2)C(=O)NCC(=O)N[C@@H]([C@@H](C)O)C(=O)N1)C(=O)N[C@@H](CC(=O)O)C(N)=O  Kd (FGA/FGB/FGG (Homo sapiens, UniProt P02671+P02675+P02679); isothermal titration calorimetry): > 20 µM

Repeated from above:
Cc1ccc(NC(=O)c2c(C)oc3ccc(O)c(CN4CCCCCC4)c23)cc1  Kd (MYC Pu22 G-quadruplex DNA; surface plasmon resonance): 4.5 ± 1.4 µM
CNCCCC[C@H](NC(=O)CNC(=O)CNC(=O)[C@H](C)NC(=O)[C@@H](N)Cc1ccc(O)cc1)C(=O)N[C@@H](C)C(=O)NCC(=O)N[C@@H](CCCCNC(C)=O)C(=O)N[C@@H](CC(=O)O)C(=O)N[C@@H](CO)C(=O)NCC(=O)N[C@@H](CCCCN)C(=O)N[C@@H](C)C(=O)N[C@@H](CCCCNC(C)=O)C(=O)N[C@@H](C)C(=O)N[C@@H](CCCCN)C(=O)N[C@@H](C)C(=O)N[C@H](C(=O)N[C@@H](CO)C(=O)N[C@@H](CCCNC(=N)N)C(N)=O)C(C)C  Kd (BPTF bromodomain; bromodomain binding, PrOF NMR titration; pH 7.4, 5-fluorotryptophan-labelled bromodomain, 40-50 µM): 340 µM
C[Si](C)(C)c1cc2c3c(c1)O[C@H](CO)[C@H](O)[C@@H]3OC2  Kd (LGALS9 N-terminal CRD; binding, competitive fluorescence polarization; 20 °C, galectin-9 N-terminal domain 1.0 µM): > 6000 µM
